Experimental data gathered from unrelated publications.
Protocols differ between the studies behind these lines. ± marks the error that the study gave.
Target: Histone deacetylase 2 (HDAC2, Homo sapiens, UniProt Q92769)
Sequence of UniProt Q92769 (whole entry, looked up): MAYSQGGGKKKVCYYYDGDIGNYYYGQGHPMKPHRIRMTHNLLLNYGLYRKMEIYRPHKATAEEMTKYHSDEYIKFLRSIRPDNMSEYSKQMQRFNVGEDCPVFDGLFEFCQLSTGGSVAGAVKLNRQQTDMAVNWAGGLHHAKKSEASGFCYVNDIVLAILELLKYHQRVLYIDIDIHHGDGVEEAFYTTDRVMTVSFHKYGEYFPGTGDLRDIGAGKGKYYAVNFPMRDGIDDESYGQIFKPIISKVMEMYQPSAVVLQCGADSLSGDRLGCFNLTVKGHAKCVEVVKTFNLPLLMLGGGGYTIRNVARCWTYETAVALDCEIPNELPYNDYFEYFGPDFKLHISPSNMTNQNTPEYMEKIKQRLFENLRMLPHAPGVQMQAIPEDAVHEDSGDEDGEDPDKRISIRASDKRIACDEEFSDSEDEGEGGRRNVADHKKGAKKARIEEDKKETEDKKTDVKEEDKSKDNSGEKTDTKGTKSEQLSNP
Mode: inhibitor

SMILES = O=C(CCCCCCNCc1ccccc1)NO; effect on = enzyme activity; technique = fluorescence; IC50 = 3100 nM
SMILES = Cc1cc(CN2CCC(CCCCCCC(=O)NO)CC2)cc(C)c1-c1ncn(C)c1-c1ccc(C#N)c2ccccc12; effect on = enzyme activity; IC50 = 5.24 ± 0.87 nM
SMILES = O=C(CCCCCCN(Cc1ccc(F)cc1)Cc1ccc(F)cc1)NO; effect on = enzyme activity; technique = fluorescence; IC50 = 10000 nM
SMILES = CN(C(=O)NC(C)(C)C)c1cnc2ccc(-c3ccc(OCCCCCC(=O)NO)nc3)cc2n1; effect on = enzyme activity; technique = fluorescence; IC50 = 6.09 nM
SMILES = O=C(CCCCCCN(Cc1ccccc1)Cc1ccccc1)NO; effect on = enzyme activity; technique = fluorescence; IC50 = 2700 nM
SMILES = O=C(NO)c1ccc(Cn2sc3ccccc3c2=O)cc1; effect on = enzyme activity; IC50 = > 10000 nM
SMILES = Nc1ccc(-c2ccccc2)cc1NC(=O)N1CCCCC1; effect on = enzyme activity; IC50 = 271 nM
SMILES = O=C(CCCC(=O)Nc1ccc(-[c-]2cccc2)cc1)NO.[Fe+2].c1cc[cH-]c1; effect on = enzyme activity; technique = fluorescence; IC50 = 3040 nM
SMILES = O=C(O)c1ccc(Cn2sc3ccccc3c2=O)cc1; effect on = enzyme activity; IC50 = > 10000 nM
SMILES = O=C(CCCCCCNCc1ccc(-c2ccccc2)s1)NO; effect on = enzyme activity; technique = fluorescence; IC50 = 690 nM
SMILES = Nc1ccc(-c2cccs2)cc1NC(=O)c1ccccc1; effect on = enzyme activity; IC50 = 129 nM
SMILES = O=C(CCCCCCNC(=O)c1cc(C(=O)c2ccccc2)cn1Cc1ccc(F)cc1)NO; effect on = enzyme activity; IC50 = 659 nM
SMILES = O=C(CCCCCCC(=O)Nc1ccccc1-[c-]1cccc1)NO.[Fe+2].c1cc[cH-]c1; effect on = enzyme activity; technique = fluorescence; IC50 = 10 nM
SMILES = O=C(CCCCCCNCc1cccnc1)NO; effect on = enzyme activity; technique = fluorescence; IC50 = 3200 nM
SMILES = CN(C(=O)NC1CCCC1)c1cnc2ccc(-c3ccc(OCCCCCC(=O)NO)nc3)cc2n1; effect on = enzyme activity; technique = fluorescence; IC50 = 8.52 nM
SMILES = Nc1ccc(-c2cccs2)cc1N; effect on = enzyme activity; IC50 = > 33300 nM
SMILES = O=c1c2ccccc2on1-c1ccccc1; effect on = enzyme activity; IC50 = > 10000 nM
SMILES = COc1ccc(CN(CCCCCCC(=O)NO)Cc2ccc(OC)c(OC)c2)cc1OC; effect on = enzyme activity; technique = fluorescence; IC50 = 1100 nM
SMILES = CC1CCC(NC(=O)N(C)c2cnc3ccc(-c4ccc(OCCCCCC(=O)NO)nc4)cc3n2)CC1 (centres unmarked); effect on = enzyme activity; technique = fluorescence; IC50 = 3.04 nM
SMILES = O=C(CCCCCCN(Cc1cccnc1)Cc1cccnc1)NO; effect on = enzyme activity; technique = fluorescence; IC50 = 4000 nM
SMILES = O=C(CCCCCCNc1ccc(C(=O)Nc2ccc(Cl)c(NC(=O)c3cccc(Cl)c3)c2)cn1)NO; effect on = enzyme activity; technique = fluorescence; notes = lysate; IC50 = 57 nM
SMILES = O=c1[nH]sc2ccccc12; effect on = enzyme activity; IC50 = > 10000 nM
SMILES = Cn1cc2c(n1)CN(C(=O)Nc1nc(-c3ccc(F)cc3)ccc1N)C2; effect on = deacetylase activity; technique = recombinant enzyme; IC50 = 180 nM

Some of these lines once more:
SMILES = O=C(O)c1ccc(Cn2sc3ccccc3c2=O)cc1; effect on = enzyme activity; IC50 = > 10000 nM
